Results pooled from the literature.
Compare with care: the assays were run in different laboratories. Several values in a cell are separate wells, animals, samples, runs or records. ± gives the spread as reported.
Spike glycoprotein: Spike glycoprotein (Severe acute respiratory syndrome coronavirus 2, UniProt P0DTC2)
rep main protease: Replicase polyprotein 1ab, main protease (rep, Severe acute respiratory syndrome coronavirus 2, UniProt P0DTD1)

| SMILES | target | assay | system | conditions | how to read | quantity | result |
| --- | --- | --- | --- | --- | --- | --- | --- |
| Cc1cc(O[C@@H]2O[C@H](CO)[C@@H](O)[C@H](O)[C@H]2O)c2c(c1)C(=O)c1cc(O)cc(O)c1C2=O | Spike glycoprotein | binding, biolayer interferometry |  |  |  | koff | 0.00724 s⁻¹ |
| Cc1nc(N)c2cnn(C3CCN(Cc4ccc(S(=O)(=O)F)cc4)CC3)c2n1 | cya (Bacillus anthracis, UniProt P40136) |  |  |  |  | kinact | 0.000867 s⁻¹ |
| NC(=O)c1ccc(/C=C/C(=O)N2CCC[C@@]3(CCN(C(=O)[C@@H]4CC(=O)NC(=O)N4)C3)C2)cc1 | rep main protease | enzyme activity |  | 5 µM |  | inhibition | 15% |
| CNC(=O)[C@H](Cc1ccccc1)NC(=O)[C@H](CC(C)C)[C@H](CSc1cccs1)C(=O)NO | rep main protease | reporter gene (Gaussia luciferase), inhibitor |  | 20 µM |  | inhibition | -0.514% |
| CC(C)=CCc1c(O)ccc(C(=O)/C=C/c2ccc(O)cc2)c1O | Spike glycoprotein | binding |  |  |  | kon | 43700 M⁻¹ s⁻¹ |
| Cc1[nH]nc2c(C(=O)N3CCC4(CCC[C@H]4NC(=O)C4=CN=C5NNN=C5C4)CC3)cccc12 | rep main protease | enzyme activity, inhibitor |  | 5 µM, run 1 |  | inhibition | 10.9% |
| COc1cc2c(cc1OC)-c1c(C)c3ccc(OC)c(OC)c3c[n+]1CC2.O=[N+]([O-])[O-] | rep main protease | reporter gene (Gaussia luciferase), inhibitor |  | 20 µM |  | inhibition | -0.0235% |
| OCC1(O)COc2cc(O)ccc2-c2cc(O)c(O)cc2C1 (stereo not shown) | Spike glycoprotein | binding, biolayer interferometry |  |  |  | koff | 0.0057 s⁻¹ |
| O=C(N[C@@H](Cc1ccccc1)C(=O)O)OCc1ccccc1 | rep main protease | reporter gene (mKate2), inhibitor |  | 20 µM |  | inhibition | -0.577% |
| C#CC1(C(=O)NC[C@H](NC(=O)c2cncc3[nH]ccc23)c2ccc3ccccc3c2)CC1 | rep main protease | enzyme activity, inhibitor |  | 5 µM, run 1 |  | inhibition | 15.8% |
| CC(C)OC(=O)[C@H](C)N[P@](=O)(OC[C@H]1O[C@@H](n2ccc(=O)[nH]c2=O)[C@](C)(F)[C@@H]1O)Oc1ccccc1 | Genome polyprotein, NS5 (Yellow fever virus, UniProt P03314) |  |  |  |  | kon | 18600 M⁻¹ s⁻¹ |
| CC[C@H](C)[C@H](NC(=O)[C@@H]1CCCN1C(=O)[C@H](C)NC(=O)[C@@H]1CSSC[C@@H]2NC(=O)[C@H](CC(=O)O)NC(=O)[C@H](CCCNC(=N)N)NC(=O)[C@H](CCC(=O)O)NC(=O)[C@H](CCCNC(=N)N)NC(=O)CNC(=O)[C@H](CC(=O)O)NC(=O)[C@@H]3CSSC[C@H](NC(=O)[C@H](CCC(=O)O)NC(=O)[C@H](CC(C)C)NC(=O)CNC(=O)[C@H](C)NC(=O)[C@H](CSSC[C@H](NC(=O)[C@H](Cc4ccccc4)NC(=O)[C@@H](N)CO)C(=O)N[C@@H](CC(C)C)C(=O)N[C@@H](C(C)C)C(=O)N[C@@H](CCCCN)C(=O)N[C@@H](Cc4c[nH]c5ccccc45)C(=O)N[C@@H](CCCCN)C(=O)N[C@@H](CCC(N)=O)C(=O)N3)NC2=O)C(=O)N[C@@H](Cc2c[nH]c3ccccc23)C(=O)N[C@@H](CCCCN)C(=O)N[C@@H](CCCNC(=N)N)C(=O)N[C@@H](CO)C(=O)NCC(=O)N[C@@H](CC(N)=O)C(=O)N[C@@H](CCCCN)C(=O)N[C@@H](CO)C(=O)N[C@@H](CO)C(=O)N[C@@H](C(C)C)C(=O)N1)C(=O)N[C@H](C(=O)O)[C@@H](C)O | ASIC1 (Homo sapiens, UniProt P78348) | binding, SPR |  | pH 7.5 |  | koff | 0.184 s⁻¹ |
| O=C(NC[C@@H]1Cc2ccccc2CN1C(=O)c1noc2c1CCCC2)c1cn[nH]c(=O)c1 | rep main protease | enzyme activity, inhibitor |  | 5 µM, run 1 |  | inhibition | 6.6% |
| CC(C)C[C@H](NC(=O)[C@H](C)NC(=O)[C@H](CCC(=O)O)NC(=O)[C@@H](N)Cc1c[nH]cn1)C(=O)N[C@@H](CO)C(=O)N[C@@H](CC(=O)O)C(=O)N1CCC[C@H]1C(=O)N[C@@H](CC(=O)O)C(=O)O | Transcriptional regulatory protein EmbR (embR, Mycobacterium tuberculosis, UniProt P9WGJ9) | biolayer interferometry |  | 25 °C |  | koff | 0.000356 ± 0.000101 s⁻¹ |
| Cc1cnc(F)c(C(=O)NC[C@@H]2c3ccccc3CCN2C(=O)c2cccc3[nH]ccc23)c1 | rep main protease | enzyme activity, inhibitor |  | 5 µM, mean of runs |  | inhibition | 10% |
| CN(C)C(=O)COC(=O)Cc1ccc(OC(=O)c2ccc(NC(=N)N)cc2)cc1 | rep main protease | reporter gene (mKate2), inhibitor |  | 20 µM |  | inhibition | -0.81% |
| Cc1cc(N[C@H]2C[C@H]3CC[C@@H]2N(C(=O)c2cnc4[nH]cc(C)c4c2)C3)nc(-c2cccnc2)n1 | rep main protease | enzyme activity, inhibitor |  | 5 µM, mean of runs |  | inhibition | 17.4% |
| O=C(O[C@@H]1O[C@@H]2COC(=O)c3cc(O)c(O)c(O)c3-c3c(cc(O)c(O)c3O)C(=O)O[C@H]([C@H]1O)[C@@H]2O)c1cc(O)c(O)c(O)c1 | Spike glycoprotein | binding, BLI |  |  |  | kon | 467 M⁻¹ s⁻¹ |
| O=S(=O)(F)Cc1ccccc1 | rep main protease | reporter gene (Gaussia luciferase), inhibitor |  | 20 µM |  | inhibition | 0.216% |
| C[C@H]1CC[C@@]2(OC1)O[C@H]1C[C@H]3[C@@H]4CC[C@@H]5C[C@@H](O[C@@H]6O[C@H](CO)[C@H](O)[C@H](O)[C@H]6O[C@@H]6O[C@H](CO)[C@@H](O)[C@H](O)[C@H]6O)CC[C@]5(C)[C@H]4CC[C@]3(C)[C@H]1[C@@H]2C | Spike glycoprotein | binding, BLI |  |  |  | kon | 9900 M⁻¹ s⁻¹ |
| CCc1c(C(=O)C(N)=O)c2c(OCC(=O)O)cccc2n1Cc1ccccc1 | Daboia russelii venom phospholipase A2 | enzyme activity, inhibitor | KL population | 0.1 µM, together with: NOB substrate | baseline: venom alone | remaining activity | 75.4% and 74.1% and 76.2% |
| Cc1cncc(C(=O)NC[C@H]2c3ccccc3CCN2C(=O)c2cccn3nnnc23)c1 | rep main protease | enzyme activity, inhibitor |  | 5 µM, run 1 |  | inhibition | 31.1% |
| O=C(Cc1ccccc1)Nc1nnc(CCSCCc2nnc(NC(=O)Cc3ccccc3)s2)s1 | rep main protease | reporter gene (Gaussia luciferase), inhibitor |  | 20 µM |  | inhibition | 2.09% |
| Cc1cc(-c2nn3c(-c4ccccc4)nnc3s2)c2ccccc2n1 | Replicase polyprotein 1ab, nsp14 N7-methyltransferase (rep, Severe acute respiratory syndrome coronavirus 2, UniProt P0DTD1) | N7-methyltransferase activity, inhibitor, Py-FLINT |  |  |  | Hill slope | 1.33 ± 0.16 |
| CC[C@H](C)[C@H](N)C(=O)N1CCC[C@H]1C(=O)N[C@H](C(=O)O)[C@@H](C)CC | rep main protease | reporter gene (Gaussia luciferase), inhibitor |  | 20 µM |  | inhibition | 0.434% |
| Nc1ccc(C(=O)N2CC3(CCC3)C[C@H]2CNC(=O)c2cncc3ccccc23)cc1O | rep main protease | enzyme activity, inhibitor |  | 5 µM, run 1 |  | inhibition | 29.5% |
| O=C(NCCOc1cc(OCCNC(=O)OCc2cn([C@@H]3O[C@H](CO)[C@H](O[C@H]4O[C@H](CO)[C@H](O)[C@H](O)[C@H]4O)[C@H](O)[C@H]3O)nn2)cc(C(=O)O)c1)OCc1cn([C@@H]2O[C@H](CO)[C@H](O[C@H]3O[C@H](CO)[C@H](O)[C@H](O)[C@H]3O)[C@H](O)[C@H]2O)nn1 | Shiga toxin subunit B (stxB, Shigella dysenteriae, UniProt Q7BQ98) |  | Escherichia coli |  |  | log IC50 | -2.9 |
| Cl.N[C@@H](Cc1ccccc1)C(=O)N1C/C(=C/c2ccc(Cl)c(Cl)c2)C(=O)/C(=C\c2ccc(Cl)c(Cl)c2)C1 | rep main protease | reporter gene (Gaussia luciferase), inhibitor |  | 20 µM |  | inhibition | -5.63% |

For quick reference, copied from above:
| SMILES | target | assay | system | conditions | how to read | quantity | result |
| --- | --- | --- | --- | --- | --- | --- | --- |
| Nc1ccc(C(=O)N2CC3(CCC3)C[C@H]2CNC(=O)c2cncc3ccccc23)cc1O | rep main protease | enzyme activity, inhibitor |  | 5 µM, run 1 |  | inhibition | 29.5% |
| C[C@H]1CC[C@@]2(OC1)O[C@H]1C[C@H]3[C@@H]4CC[C@@H]5C[C@@H](O[C@@H]6O[C@H](CO)[C@H](O)[C@H](O)[C@H]6O[C@@H]6O[C@H](CO)[C@@H](O)[C@H](O)[C@H]6O)CC[C@]5(C)[C@H]4CC[C@]3(C)[C@H]1[C@@H]2C | Spike glycoprotein | binding, BLI |  |  |  | kon | 9900 M⁻¹ s⁻¹ |
| CC[C@H](C)[C@H](N)C(=O)N1CCC[C@H]1C(=O)N[C@H](C(=O)O)[C@@H](C)CC | rep main protease | reporter gene (Gaussia luciferase), inhibitor |  | 20 µM |  | inhibition | 0.434% |
| CN(C)C(=O)COC(=O)Cc1ccc(OC(=O)c2ccc(NC(=N)N)cc2)cc1 | rep main protease | reporter gene (mKate2), inhibitor |  | 20 µM |  | inhibition | -0.81% |
